Experimental data collected from several papers.
Numbered parts are unrelated; each lists some results of a single study.
Chain of UniProt Q8NEB9 (whole entry, looked up): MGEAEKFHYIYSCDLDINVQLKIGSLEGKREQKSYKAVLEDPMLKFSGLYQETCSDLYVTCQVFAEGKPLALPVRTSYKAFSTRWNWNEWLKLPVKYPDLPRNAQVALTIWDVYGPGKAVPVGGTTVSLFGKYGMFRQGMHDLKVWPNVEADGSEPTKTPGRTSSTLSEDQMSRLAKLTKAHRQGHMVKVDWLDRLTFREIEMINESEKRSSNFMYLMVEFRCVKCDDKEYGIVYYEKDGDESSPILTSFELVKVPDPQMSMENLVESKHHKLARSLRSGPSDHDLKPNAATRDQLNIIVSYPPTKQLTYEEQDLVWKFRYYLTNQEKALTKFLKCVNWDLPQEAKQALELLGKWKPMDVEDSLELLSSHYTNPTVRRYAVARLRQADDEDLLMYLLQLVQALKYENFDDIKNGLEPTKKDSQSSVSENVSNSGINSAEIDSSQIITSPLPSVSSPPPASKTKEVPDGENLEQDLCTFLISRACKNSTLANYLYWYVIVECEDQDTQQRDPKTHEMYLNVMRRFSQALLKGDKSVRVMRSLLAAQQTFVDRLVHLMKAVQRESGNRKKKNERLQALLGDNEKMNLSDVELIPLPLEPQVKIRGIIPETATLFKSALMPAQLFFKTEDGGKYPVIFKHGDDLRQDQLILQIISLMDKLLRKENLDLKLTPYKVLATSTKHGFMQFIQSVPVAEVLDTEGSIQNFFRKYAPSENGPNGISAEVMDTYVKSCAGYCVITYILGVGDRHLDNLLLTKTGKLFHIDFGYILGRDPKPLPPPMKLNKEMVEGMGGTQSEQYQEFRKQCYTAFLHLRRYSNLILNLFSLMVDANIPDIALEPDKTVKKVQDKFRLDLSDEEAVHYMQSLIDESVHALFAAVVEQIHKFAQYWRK
Chain of UniProt P08588 (whole entry, looked up): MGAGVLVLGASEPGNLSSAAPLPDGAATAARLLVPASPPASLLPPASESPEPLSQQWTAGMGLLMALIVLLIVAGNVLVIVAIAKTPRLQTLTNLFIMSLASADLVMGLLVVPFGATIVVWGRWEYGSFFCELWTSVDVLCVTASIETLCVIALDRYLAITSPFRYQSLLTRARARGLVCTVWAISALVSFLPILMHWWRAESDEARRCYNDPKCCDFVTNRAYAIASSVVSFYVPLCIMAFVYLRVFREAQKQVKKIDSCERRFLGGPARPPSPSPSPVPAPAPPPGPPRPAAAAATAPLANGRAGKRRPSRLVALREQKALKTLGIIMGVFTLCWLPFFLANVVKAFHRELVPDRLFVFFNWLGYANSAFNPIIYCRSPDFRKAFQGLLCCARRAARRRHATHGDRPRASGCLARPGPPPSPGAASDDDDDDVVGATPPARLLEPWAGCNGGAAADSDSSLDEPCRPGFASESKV
Chain of UniProt P18089 (whole entry, looked up): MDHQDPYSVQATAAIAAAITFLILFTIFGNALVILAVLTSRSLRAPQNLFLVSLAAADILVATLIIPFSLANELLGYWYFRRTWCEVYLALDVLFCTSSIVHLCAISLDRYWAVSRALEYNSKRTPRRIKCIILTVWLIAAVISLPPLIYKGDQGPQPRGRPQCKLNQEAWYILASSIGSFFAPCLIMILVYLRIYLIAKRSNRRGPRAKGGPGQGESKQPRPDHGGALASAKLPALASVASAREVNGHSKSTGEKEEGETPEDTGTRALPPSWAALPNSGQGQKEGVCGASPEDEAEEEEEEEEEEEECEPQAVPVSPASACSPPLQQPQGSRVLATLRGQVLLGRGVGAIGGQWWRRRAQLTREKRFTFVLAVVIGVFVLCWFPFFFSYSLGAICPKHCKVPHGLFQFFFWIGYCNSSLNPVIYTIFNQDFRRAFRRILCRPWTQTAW
Chain of UniProt P08912 (whole entry, looked up): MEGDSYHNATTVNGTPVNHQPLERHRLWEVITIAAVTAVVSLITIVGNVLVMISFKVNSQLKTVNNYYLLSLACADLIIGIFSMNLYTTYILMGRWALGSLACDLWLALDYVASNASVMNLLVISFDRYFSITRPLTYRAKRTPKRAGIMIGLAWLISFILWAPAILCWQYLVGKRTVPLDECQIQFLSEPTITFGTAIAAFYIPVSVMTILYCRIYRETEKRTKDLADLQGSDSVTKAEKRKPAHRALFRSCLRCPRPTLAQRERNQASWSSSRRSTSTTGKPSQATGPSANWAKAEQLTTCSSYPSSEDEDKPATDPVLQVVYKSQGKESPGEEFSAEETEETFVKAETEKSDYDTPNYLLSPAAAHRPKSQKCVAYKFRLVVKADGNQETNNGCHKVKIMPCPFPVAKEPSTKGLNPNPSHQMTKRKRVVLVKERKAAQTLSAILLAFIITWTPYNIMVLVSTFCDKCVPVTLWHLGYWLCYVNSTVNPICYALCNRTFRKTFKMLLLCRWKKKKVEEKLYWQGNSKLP
Chain of UniProt Q9H422 (whole entry, looked up): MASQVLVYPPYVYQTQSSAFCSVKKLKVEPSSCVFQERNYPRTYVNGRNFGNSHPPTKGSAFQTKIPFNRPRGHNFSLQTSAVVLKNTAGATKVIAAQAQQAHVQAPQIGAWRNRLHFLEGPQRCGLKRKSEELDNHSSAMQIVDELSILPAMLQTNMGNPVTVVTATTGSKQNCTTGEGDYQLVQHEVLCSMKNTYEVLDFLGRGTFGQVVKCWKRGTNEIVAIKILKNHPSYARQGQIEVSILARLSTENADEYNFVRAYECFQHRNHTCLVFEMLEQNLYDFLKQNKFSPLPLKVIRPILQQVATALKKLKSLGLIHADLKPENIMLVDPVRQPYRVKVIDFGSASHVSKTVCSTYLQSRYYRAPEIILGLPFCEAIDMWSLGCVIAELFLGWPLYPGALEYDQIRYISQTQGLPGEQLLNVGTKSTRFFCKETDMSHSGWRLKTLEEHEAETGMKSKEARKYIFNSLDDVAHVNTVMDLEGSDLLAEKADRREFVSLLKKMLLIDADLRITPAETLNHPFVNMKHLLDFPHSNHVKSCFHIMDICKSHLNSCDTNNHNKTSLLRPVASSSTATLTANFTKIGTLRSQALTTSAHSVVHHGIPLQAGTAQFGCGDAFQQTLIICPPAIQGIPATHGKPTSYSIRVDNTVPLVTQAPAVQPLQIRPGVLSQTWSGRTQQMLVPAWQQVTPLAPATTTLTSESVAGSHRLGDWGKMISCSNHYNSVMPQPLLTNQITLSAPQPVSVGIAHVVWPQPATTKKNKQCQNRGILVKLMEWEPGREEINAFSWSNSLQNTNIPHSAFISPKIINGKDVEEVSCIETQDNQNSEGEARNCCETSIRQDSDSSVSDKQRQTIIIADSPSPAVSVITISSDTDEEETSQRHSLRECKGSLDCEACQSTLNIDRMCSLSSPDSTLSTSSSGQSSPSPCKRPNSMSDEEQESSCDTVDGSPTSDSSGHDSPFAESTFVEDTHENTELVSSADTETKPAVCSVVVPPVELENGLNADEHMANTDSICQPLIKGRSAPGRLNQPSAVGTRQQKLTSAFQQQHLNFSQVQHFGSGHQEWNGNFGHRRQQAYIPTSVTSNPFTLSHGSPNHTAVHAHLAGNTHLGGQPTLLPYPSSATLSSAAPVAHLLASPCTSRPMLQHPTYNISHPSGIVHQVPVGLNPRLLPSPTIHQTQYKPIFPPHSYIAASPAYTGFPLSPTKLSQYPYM
Chain of UniProt P35462 (whole entry, looked up): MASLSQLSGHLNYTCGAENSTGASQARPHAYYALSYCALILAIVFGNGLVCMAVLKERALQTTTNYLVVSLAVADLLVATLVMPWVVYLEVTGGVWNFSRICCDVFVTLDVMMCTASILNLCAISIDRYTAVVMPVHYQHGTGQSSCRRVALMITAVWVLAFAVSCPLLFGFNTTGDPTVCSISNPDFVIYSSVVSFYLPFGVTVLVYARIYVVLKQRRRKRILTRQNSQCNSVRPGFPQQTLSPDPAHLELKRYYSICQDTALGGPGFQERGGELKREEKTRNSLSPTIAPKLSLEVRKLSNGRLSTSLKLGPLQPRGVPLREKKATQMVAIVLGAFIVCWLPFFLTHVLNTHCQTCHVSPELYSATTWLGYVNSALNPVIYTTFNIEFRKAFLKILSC

Sample 1
SMILES: CCNC(=O)c1cc2c(N3CCOC[C@@H]3C)ccnc2[nH]1
Observed: ligand displacement
Method: radioligand
Concentration: 10 µM
Measurement: inhibition
Alpha-2B adrenergic receptor (ADRA2B, Homo sapiens, UniProt P18089): 34.4%
Beta-1 adrenergic receptor (ADRB1, Homo sapiens, UniProt P08588): -11.7%
Histamine H3 receptor (HRH3, Homo sapiens, UniProt Q9Y5N1): 40.5%
Sigma intracellular receptor 2 (TMEM97, Homo sapiens, UniProt Q5BJF2): 34.6%
5-hydroxytryptamine receptor 5A (HTR5A, Homo sapiens, UniProt P47898): -8.05%
Histamine H2 receptor (HRH2, Homo sapiens, UniProt P25021): 1.31%
Muscarinic acetylcholine receptor M2 (CHRM2, Homo sapiens, UniProt P08172): -1.26%
Muscarinic acetylcholine receptor M5 (CHRM5, Homo sapiens, UniProt P08912): -4.95%
Histamine H1 receptor (HRH1, Homo sapiens, UniProt P35367): 4.94%
Alpha-1D adrenergic receptor (ADRA1D, Homo sapiens, UniProt P25100): 8.58%
D(3) dopamine receptor (DRD3, Homo sapiens, UniProt P35462): -7.82%
Alpha-2C adrenergic receptor (ADRA2C, Homo sapiens, UniProt P18825): 3.16%
D(2) dopamine receptor (DRD2, Homo sapiens, UniProt P14416): 12.3%

Sample 2
Species: human
Sample: microsomes or S9
Concentration: 2 µM
Time: 0.5 h
Measurement: remaining compound
CCOC(=O)c1c(-c2ccccc2)noc1-c1c[nH]nn1: 80.6%
C=CCn1c(CN2C(=O)c3cccc4cccc(c34)C2=O)nnc1SCC(=O)OCC: 93.5%
CCOC(=O)c1[nH]c(=O)n(CCS(C)(=O)=O)c1C: 72.6%
Cc1ccc(C(C)C)c(OCC(=O)NC2=NCC(=O)N2c2ccccc2)c1: < 1%
c1ccc2c(c1)CCN(c1nnc(-n3cccc3)s1)C2: 35.5%
O=C(CN1C(=O)c2ccccc2N2C(=O)c3ccccc3C12)Nc1ccncc1 (centres unmarked): 68.2%

Sample 3
Target: Mitogen-activated protein kinase kinase kinase 9 (MAP3K9, Homo sapiens, UniProt P80192)
Chain of UniProt P80192 (whole entry, looked up): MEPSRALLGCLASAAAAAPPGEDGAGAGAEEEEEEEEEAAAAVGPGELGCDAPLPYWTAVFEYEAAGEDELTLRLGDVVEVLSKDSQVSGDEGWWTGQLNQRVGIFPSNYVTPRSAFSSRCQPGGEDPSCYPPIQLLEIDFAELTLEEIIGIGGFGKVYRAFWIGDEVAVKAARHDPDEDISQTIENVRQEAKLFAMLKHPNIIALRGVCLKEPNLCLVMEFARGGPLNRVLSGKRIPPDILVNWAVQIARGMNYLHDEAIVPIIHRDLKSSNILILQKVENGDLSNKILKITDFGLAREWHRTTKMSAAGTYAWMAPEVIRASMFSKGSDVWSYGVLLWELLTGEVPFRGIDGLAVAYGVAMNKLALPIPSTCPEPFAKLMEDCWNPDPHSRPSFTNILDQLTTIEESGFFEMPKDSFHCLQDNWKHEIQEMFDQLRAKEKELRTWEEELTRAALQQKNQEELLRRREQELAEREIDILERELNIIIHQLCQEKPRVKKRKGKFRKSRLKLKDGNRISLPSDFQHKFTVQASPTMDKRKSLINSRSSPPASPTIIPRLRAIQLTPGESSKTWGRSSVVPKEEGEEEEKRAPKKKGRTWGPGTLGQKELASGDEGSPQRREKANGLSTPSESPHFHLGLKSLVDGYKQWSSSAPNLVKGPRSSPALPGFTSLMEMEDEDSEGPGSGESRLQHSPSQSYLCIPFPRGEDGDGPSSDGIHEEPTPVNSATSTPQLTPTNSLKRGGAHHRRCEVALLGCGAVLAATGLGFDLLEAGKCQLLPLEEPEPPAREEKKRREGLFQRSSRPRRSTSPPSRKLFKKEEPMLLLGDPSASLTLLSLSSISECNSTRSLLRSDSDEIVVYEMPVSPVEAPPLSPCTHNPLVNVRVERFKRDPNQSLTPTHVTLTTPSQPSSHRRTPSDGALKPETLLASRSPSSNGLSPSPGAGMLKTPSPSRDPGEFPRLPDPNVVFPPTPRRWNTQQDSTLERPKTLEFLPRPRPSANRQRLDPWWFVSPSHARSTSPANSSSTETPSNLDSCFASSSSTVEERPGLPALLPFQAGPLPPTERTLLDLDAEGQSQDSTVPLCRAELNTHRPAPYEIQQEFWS
Observed: enzyme activity
Mode: inhibitor
Concentration: 0.5 µM
Reference: control
Measurement: remaining activity
O=C(NC(NC(=S)Nc1ccc(F)c([N+](=O)[O-])c1)C(Cl)(Cl)Cl)C(c1ccccc1)c1ccccc1 (centres unmarked): 94%
C[C@@H]1CCN(C(=O)CC#N)C[C@@H]1N(C)c1ncnc2[nH]ccc12: 113%
Cc1cc2ncc(-c3ccccc3)nc2cc1C: 92.6%
COc1cc2ncnc(Nc3ccc(O)c(Br)c3)c2cc1OC: 80.1%
CCN(CC)CCNC(=O)c1c(C)[nH]c(/C=C2\C(=O)Nc3ccc(Cl)cc32)c1C: 49.6%
c1ccc(-c2[nH]ncc2-c2ccnc3ccccc23)nc1: 90.4%
O=C(Nc1cccc(Nc2nccc(Nc3cccc(C(F)(F)F)c3)n2)c1)C1CC1: 95.2%
N#C/C(=C\c1ccc(O)c(O)c1)C(=O)NCc1ccccc1: 95.5%
O=c1cc(-c2cccc3c2Sc2ccccc2S3)oc(N2CCOCC2)c1: 95.5%
O=C1c2ccccc2-c2n[nH]c3cccc1c23: 33.6%
CCN(CC)C(=O)c1ccc(Nc2nc(OCC3CCCCC3)c3[nH]cnc3n2)cc1: 3.8%
N#Cc1c(NC(=O)c2cccc3ccccc23)sc2c1CCCC2: 99.5%
Cc1nc2cc3nc(-c4cccs4)cnc3cc2n1C: 90.3%
c1ccc(-c2cnc(Nc3ccc(OCCN4CCCC4)cc3)s2)cc1: 94.3%
CCOc1nc(NC(=O)Cc2cc(OC)ccc2OC)cc(N)c1C#N: 103%
CN(C)C[C@H]1CCn2c(c(C3=C(c4cn(C)c5ccccc45)C(=O)NC3=O)c3ccccc32)C1: 90.8%
COc1cc2c(cc1OC)-c1[nH]nc(Nc3cccc(F)c3)c1C2: 90%
Nc1cccc(-c2cc3c(Oc4cccc(O)c4)ncnc3[nH]2)c1: 16.2%
Ic1cccc(CSc2nnc(-c3ccncc3)o2)c1: 108%
O=C1C(Cl)=C(N2C(=O)CCC2=O)C(=O)c2ccccc21: 106%
Cc1cn(-c2cc(NC(=O)c3ccc(C)c(Nc4nccc(-c5cccnc5)n4)c3)cc(C(F)(F)F)c2)cn1: 112%
COc1cc2ncnc(Nc3cccc(Cl)c3)c2cc1OC: 82.8%
Cn1nc2c3c(cccc31)C(=O)c1ccccc1-2: 99.4%
CN([C@@H](Cc1ccc(OS(=O)(=O)c2cccc3cnccc23)cc1)C(=O)N1CCN(c2ccccc2)CC1)S(=O)(=O)c1cccc2cnccc12: 104%

Sample 4
Compound: COc1ccc2[nH]c3c4[nH]c5ccc(OC)cc5c4c4c(c3c2c1)C(=O)NC4=O
Method: competitive binding panel
Concentration: 1 µM
Reference: vehicle
Measurement: remaining binding
Homeodomain-interacting protein kinase 3 (HIPK3, Homo sapiens, UniProt Q9H422): 44%
Phosphatidylinositol 3-kinase catalytic subunit type 3 (PIK3C3, Homo sapiens, UniProt Q8NEB9); item: VPS34: 80%
Activated CDC42 kinase 1 (TNK2, Homo sapiens, UniProt Q07912): 69%

Sample 5
Compound: CC(C)n1cnc(-c2ccc(F)cc2)c1-c1ncc(C(=O)Nc2ccc(N3CCN(C)CC3)cc2)[nH]1
Method: phase 2a trial
Species: idiopathic pulmonary fibrosis patients
Measurement: patients with haematuria
all arms pooled, grade 4 emergent event: 0%
60 mg once daily, grade 2 emergent event: 0%
all arms pooled, grade 3 emergent event: 0%
60 mg once daily, grade 4 emergent event: 0%
60 mg once daily, grade 5 emergent event: 0%
30 mg once daily, grade 5 emergent event: 0%
30 mg once daily, grade 3 emergent event: 0%

For quick reference, copied from above (sample 5):
60 mg once daily, grade 2 emergent event: 0%
all arms pooled, grade 3 emergent event: 0%
60 mg once daily, grade 4 emergent event: 0%
60 mg once daily, grade 5 emergent event: 0%
